Experimental data pooled from the literature.
Numbered parts are unrelated; each lists some results of a single study. Substitutions count along the parent as printed.

Block 1 — target: NFIL3, bZIP domain (human); technique: DHFR protein complementation; matrix: yeast; baseline: wild-type JUN-FOS pair; direction: higher = stronger binding
Notes: single substitutions, most at no-binding floor
Starting sequence: JUN, bZIP domain (human); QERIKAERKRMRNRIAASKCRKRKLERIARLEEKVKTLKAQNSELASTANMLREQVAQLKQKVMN; partner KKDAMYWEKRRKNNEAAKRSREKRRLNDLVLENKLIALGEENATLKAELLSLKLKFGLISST
Change | binding fitness [natural log]
A29S | -1.44
K39H | -1.46
V56M | -1.05
I28N | -1.36
K34W | -1.49
E54I | -1.46
L38W | -1.43
L45R | -1.53
L31T | -1.57
K36A | -1.44
A57Q | -1.46
V56G | -1.51
A29D | -1.43
L52K | -1.5
T48H | -1.55
E32T | -1.4
Q41W | -1.58
L59G | -1.42
E32C | -1.36
Q41M | -1.47
E33Q | -1.44
L59R | -1.59
Q55H | -1.38
K39W | -1.57
L38G | -1.47

Block 2 — target: CCND3, cyclin fold, Cln2 fusion (human); technique: yeast growth competition, sequencing; matrix: yeast; notes: weak parent motif; baseline: not given; direction: higher = stronger binding
Starting sequence: E2F8 docking peptide (human); FVPQRKLEVSTED; partner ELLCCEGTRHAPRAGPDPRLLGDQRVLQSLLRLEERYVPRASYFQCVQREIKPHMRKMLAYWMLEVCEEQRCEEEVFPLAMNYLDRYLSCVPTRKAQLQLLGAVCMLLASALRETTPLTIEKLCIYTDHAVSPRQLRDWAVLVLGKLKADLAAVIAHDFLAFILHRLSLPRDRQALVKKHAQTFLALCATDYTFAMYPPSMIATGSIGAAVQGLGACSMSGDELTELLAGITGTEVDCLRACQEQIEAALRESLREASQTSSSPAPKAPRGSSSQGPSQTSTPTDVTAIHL
Change | normalised enrichment score
R5A L7A | -0.175
K6A | 0.0992
V9A | 0.182
T11A | 0.116
P3A | 0.126
V9F | -0.116
D13A | 0.102
F1A | 0.111
V9L | -0.446
V2A | 0.0629
R5K V9L | 0.0531

Block 3 — technique: universal PBM; molecule type: double-stranded DNA, one strand shown; matrix: in vitro; tested at: 600 nM; direction: higher = stronger binding
Target: Sal-like protein 4, full length isoform A (SALL4, Homo sapiens, UniProt Q9UJQ4, residues 1-1053)
Sequence of UniProt Q9UJQ4 (whole entry, looked up): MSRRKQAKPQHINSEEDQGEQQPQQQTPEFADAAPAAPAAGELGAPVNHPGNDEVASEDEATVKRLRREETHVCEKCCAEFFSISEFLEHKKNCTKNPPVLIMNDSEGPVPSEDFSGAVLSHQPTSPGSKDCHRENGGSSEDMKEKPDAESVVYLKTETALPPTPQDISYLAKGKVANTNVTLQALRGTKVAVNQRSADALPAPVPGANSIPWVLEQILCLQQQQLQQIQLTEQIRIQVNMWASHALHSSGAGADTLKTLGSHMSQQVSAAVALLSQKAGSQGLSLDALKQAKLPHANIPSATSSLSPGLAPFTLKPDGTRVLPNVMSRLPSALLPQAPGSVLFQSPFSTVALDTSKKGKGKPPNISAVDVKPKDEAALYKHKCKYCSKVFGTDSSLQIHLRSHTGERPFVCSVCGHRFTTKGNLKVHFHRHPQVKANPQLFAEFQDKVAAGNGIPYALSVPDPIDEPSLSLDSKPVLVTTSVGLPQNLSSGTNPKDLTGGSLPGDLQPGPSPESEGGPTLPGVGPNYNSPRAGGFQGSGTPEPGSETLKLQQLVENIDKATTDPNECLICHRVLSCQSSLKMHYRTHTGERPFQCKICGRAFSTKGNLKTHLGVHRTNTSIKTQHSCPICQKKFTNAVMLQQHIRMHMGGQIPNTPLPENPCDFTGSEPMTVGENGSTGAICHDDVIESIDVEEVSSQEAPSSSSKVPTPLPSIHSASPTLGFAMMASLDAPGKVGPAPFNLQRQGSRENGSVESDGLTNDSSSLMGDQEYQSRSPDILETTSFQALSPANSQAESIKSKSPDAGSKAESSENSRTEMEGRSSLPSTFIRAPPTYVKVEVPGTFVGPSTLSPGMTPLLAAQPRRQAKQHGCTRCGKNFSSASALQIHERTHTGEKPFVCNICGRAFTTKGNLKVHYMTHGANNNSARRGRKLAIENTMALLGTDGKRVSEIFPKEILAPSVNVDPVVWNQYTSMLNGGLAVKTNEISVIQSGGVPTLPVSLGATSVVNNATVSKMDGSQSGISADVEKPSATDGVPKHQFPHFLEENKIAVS
Notes: 8-mer, flanks averaged, mean of replicates
Sequence | E-score
CAAGGCGG | -0.3
CAGTACAC | -0.0335
CGAACAGA | 0.0756
CCAAGTAG | -0.153
AACGAGAG | 0.125
CGCGCCTA | -0.114
GGACTAAC | -0.146
CATTTGCA | 0.203
GTTAATTA | 0.283
CCAGATCC | -0.378
ATACTTCG | 0.225
GAGCTTCA | -0.0342
ATTTGAAG | 0.202
CAGGAGTC | -0.137
GCCCCAGA | -0.409
TCTATCCA | 0.075
AAAACCAG | 0.0685
TTGGTAAA | 0.245
ACCGAGCG | -0.165
GAAGCGTA | -0.0751
CCTAACAA | 0.235
CACATTCC | 0.072
TATCTCCA | 0.109
GCAACGAA | -0.0264
GATTCCCC | -0.258

Block 4 — technique: aptamer microarray, sandwich; molecule type: DNA with 2'F-ANA; matrix: in vitro; tested at: 200 nM; with: Cy3 exosite-II aptamer, 400 nM; direction: higher = stronger binding; sequence: GGTTGGTGTGGTTGG
Target: Prothrombin, mature alpha-thrombin (F2, Homo sapiens, UniProt P00734)
Notes: whole 15-mer aptamer, many near background
Modification | mean fluorescence intensity [a.u.]
2'F-ANA at 1 3 4 5 10 11 12 13 15 | 119
2'F-ANA at 3 4 7 9 10 12 | 526
2'F-ANA at 1 2 3 4 6 9 13 14 | 57
2'F-ANA at 4 7 8 10 13 15 | 76.7
2'F-ANA at 1 5 6 9 11 12 13 14 | 51.7
2'F-ANA at 2 3 9 10 11 12 13 14 | 294
2'F-ANA at 6 8 9 15 | 524
2'F-ANA at 2 3 4 7 11 12 14 | 365
2'F-ANA at 1 3 4 5 8 10 12 | 51.7
2'F-ANA at 1 2 5 7 9 10 13 14 15 | 46.7
2'F-ANA at 1 3 7 9 10 11 12 | 119
2'F-ANA at 1 3 5 6 8 9 13 15 | 58.2
2'F-ANA at 1 2 4 6 8 11 13 14 15 | 49.3
2'F-ANA at 4 10 14 15 | 63.5
2'F-ANA at 4 5 6 8 9 10 11 12 15 | 55.1
2'F-ANA at 1 2 4 11 15 | 94.1

Block 5 — technique: RNA Bind-n-Seq; molecule type: RNA; matrix: in vitro; tested at: 365 nM; baseline: no-protein control; direction: higher = stronger binding
Target: RNA binding protein fox-1 homolog 2, RRM domain, GST-SBP tag (RBFOX2, Homo sapiens, UniProt O43251-10, residues 100-194)
Notes: natural RNA segment, single round, ends assumed
Target sequence (chain): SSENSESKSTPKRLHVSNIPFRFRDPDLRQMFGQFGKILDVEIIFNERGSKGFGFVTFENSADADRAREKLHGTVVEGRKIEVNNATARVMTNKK
Sequence | RBNS enrichment (R)
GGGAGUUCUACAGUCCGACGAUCACAUAUCUUUACAGCUUAUUUGAAUGUGAGAAUUGGAAUAUUACCUGUAUAUAUCAGAUGAGCAGUGAUGACUUCUAUAACUGUUGGCUUUAAUAUUUUUCAUUUAGCUAUGGAAUUCUCGGGUGCCAA | 0.442
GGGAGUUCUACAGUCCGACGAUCUGGCAUGGUAGCUGAAGCCCACUCCUGUGCAAGCCAUACUGGAACUUCAUAUUGAGAAUAGAAGACGUAGAAAUCAGAUGGAUUUCCAAAGUGGCCAAACUUUUCAACUGUGGAAUUCUCGGGUGCCAA | 0.669
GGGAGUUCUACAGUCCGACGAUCUUUAUUAAACACUGUCUAGAAAAAGAAAGUGAAGCUGAGAACUCUUCCUUUAUUGUGCAUUUAUAUUUUCUGCUGAAUUCCGGUAGUUCCCUUUAAAGUCAUGUUGACUAUGGAAUUCUCGGGUGCCAA | 1.08
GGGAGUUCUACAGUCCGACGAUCCCCUUGAGUUUUACCAGCACAAGCCAUUCUUUGCCCCUGUUCACAUAACUGAGCUCAAGCUCUUGCCAAACACCAACAAGCAAGAUGGUUGCAACCUGGCAACAUUGAAUUGGAAUUCUCGGGUGCCAA | 0.393
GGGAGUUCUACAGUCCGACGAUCUUAAGACAGGUGCACUAAUGAUAACCAUUCCUUCACCAAGUAGCAACAUUCUUGCCAGAGUUCUUGGGAAACCUGUUUUUUUCUCUACUCUCCAUCUCUGCUGCUCUCAUUGGAAUUCUCGGGUGCCAA | 0.483
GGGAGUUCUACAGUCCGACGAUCAGGAUGACGGCUGCUCUGAUAUGGUGCUCUUCUGAGGUGGCAUAAGGGCUGGCCCUUAUUUGCUCUCCCUCCUUCGACUUGCAGAAAUUAAUUUAAUUAAUUAAUUUACUUGGAAUUCUCGGGUGCCAA | 0.444
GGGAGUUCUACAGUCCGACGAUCAGUCUUGCCAACAAGUGCCAAAUAUCUGAGGAACCCAGGAACCCAGGGGAUCCCUUCCCCCAAGCCCGUCAGUAGCGUCAGCUUGGGGCCUCUCGGGACUCCUGUUGUAGUGGAAUUCUCGGGUGCCAA | 0.298
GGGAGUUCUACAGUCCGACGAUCUGCGUUGACCUGCCUUGUCUUACGGUACACACAGCAAUAAAGCCUGGGUUCCGCCCGGUCUCCACCCUCCCUCCGCCUCCCUUGGUUAGUUUCACAGUGCUGGCAAUGAAUGGAAUUCUCGGGUGCCAA | 0.735
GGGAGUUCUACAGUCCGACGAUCCAUCAUCUCCAGAACUCCCAGCGGGGCUCCCUGAGCUCUCAAGGAGAUGCUGCCAUCACUGGGAGGCUCAGAGGACCCUUCCUGCCCACCUUCGGAGACGGCUUCUGGAGUGGAAUUCUCGGGUGCCAA | 0.238
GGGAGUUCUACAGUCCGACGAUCAAGCUUAUUAUUUUAUAUCCUUUAGGUAAUAUAUGUAUAUGCUAUAUACAUAUAAUUAUAUACAUAUAUGUAAUCUCAAUUAGGCAAUUUUAAUAGACUUCACAAAAAUAUGGAAUUCUCGGGUGCCAA | 0.565
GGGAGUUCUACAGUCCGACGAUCCUCUCUCUUCAGCCGCUCCACAGGACAGCCAUUCCUUCUGCCGCCCACCCCCCUUAGACCACAGACAGCAUAUGGGUAUUGCUUGUUUAGAUCCAUCCCACACCCAGACAUGGAAUUCUCGGGUGCCAA | 1.54
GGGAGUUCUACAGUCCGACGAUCUCCAUAGUCUCCACUGUGAACUGAGGAGGGGAGGGGUGUGCUGGGGAAUAAAUCUUGUAUGAGAACAUCUUUAAGAGACUGAUGCUGAAUGGUGUCCUACCCUUGAUAGGUGGAAUUCUCGGGUGCCAA | 0.442

Block 6 — technique: DHFR PCA, deep sequencing; matrix: yeast; with: (+)-ABA 0.0091 µM; baseline: wild-type fitted maximum; direction: higher = stronger binding
Target: ABI1, truncated, D143A, DHFR fusion (Arabidopsis thaliana)
Notes: methotrexate growth selection, single substitutions
Starting sequence: PYL1, truncated, DHFR fusion (Arabidopsis thaliana); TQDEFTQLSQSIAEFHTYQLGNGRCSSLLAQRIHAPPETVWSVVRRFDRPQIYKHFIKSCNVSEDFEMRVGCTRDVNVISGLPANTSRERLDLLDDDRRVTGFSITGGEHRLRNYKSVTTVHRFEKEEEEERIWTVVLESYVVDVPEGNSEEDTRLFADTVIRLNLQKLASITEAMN
Change | relative binding score [%]
G148D | 3.32
I79F | 26
Y53K | -0.492
W41S | 0.79
V78N | 45.2
L169Y | -1.86
L164A | 2.3
L138Y | -1.9
M176T | 9.01
C60D | -0.68
V62C | -4.48
E38H | -3.49
R155Y | 0.404
L8K | -7.19
V143C | 43.7
E89H | 1.25
F124V | 31.7
T17D | -3.07

Mixed results
Substance | target | test | system | conditions | scale | quantity | value
PhoQ, residues 284 288 289 292 302 303 GASLAW | PhoP, residues 12 14 15 18 19 LHATL (Escherichia coli, UniProt P23836) | Sort-seq, measured: YFP reporter | E. coli | PhoQ-PhoP variant library, with: 10 µM Mg2+ | baseline: high Mg2+ state, higher = stronger signaling | fold induction | 5.19

For quick reference, copied from above (mixed results):
Substance | target | test | system | conditions | scale | quantity | value
PhoQ, residues 284 288 289 292 302 303 GASLAW | PhoP, residues 12 14 15 18 19 LHATL (Escherichia coli, UniProt P23836) | Sort-seq, measured: YFP reporter | E. coli | PhoQ-PhoP variant library, with: 10 µM Mg2+ | baseline: high Mg2+ state, higher = stronger signaling | fold induction | 5.19
